Experimental data gathered from unrelated publications.
Protocols differ between the studies behind these lines. ± marks the error that the study gave.
MAP3K9: Mitogen-activated protein kinase kinase kinase 9 (MAP3K9, Homo sapiens, UniProt P80192)
Chain of UniProt P80192 (whole entry, looked up): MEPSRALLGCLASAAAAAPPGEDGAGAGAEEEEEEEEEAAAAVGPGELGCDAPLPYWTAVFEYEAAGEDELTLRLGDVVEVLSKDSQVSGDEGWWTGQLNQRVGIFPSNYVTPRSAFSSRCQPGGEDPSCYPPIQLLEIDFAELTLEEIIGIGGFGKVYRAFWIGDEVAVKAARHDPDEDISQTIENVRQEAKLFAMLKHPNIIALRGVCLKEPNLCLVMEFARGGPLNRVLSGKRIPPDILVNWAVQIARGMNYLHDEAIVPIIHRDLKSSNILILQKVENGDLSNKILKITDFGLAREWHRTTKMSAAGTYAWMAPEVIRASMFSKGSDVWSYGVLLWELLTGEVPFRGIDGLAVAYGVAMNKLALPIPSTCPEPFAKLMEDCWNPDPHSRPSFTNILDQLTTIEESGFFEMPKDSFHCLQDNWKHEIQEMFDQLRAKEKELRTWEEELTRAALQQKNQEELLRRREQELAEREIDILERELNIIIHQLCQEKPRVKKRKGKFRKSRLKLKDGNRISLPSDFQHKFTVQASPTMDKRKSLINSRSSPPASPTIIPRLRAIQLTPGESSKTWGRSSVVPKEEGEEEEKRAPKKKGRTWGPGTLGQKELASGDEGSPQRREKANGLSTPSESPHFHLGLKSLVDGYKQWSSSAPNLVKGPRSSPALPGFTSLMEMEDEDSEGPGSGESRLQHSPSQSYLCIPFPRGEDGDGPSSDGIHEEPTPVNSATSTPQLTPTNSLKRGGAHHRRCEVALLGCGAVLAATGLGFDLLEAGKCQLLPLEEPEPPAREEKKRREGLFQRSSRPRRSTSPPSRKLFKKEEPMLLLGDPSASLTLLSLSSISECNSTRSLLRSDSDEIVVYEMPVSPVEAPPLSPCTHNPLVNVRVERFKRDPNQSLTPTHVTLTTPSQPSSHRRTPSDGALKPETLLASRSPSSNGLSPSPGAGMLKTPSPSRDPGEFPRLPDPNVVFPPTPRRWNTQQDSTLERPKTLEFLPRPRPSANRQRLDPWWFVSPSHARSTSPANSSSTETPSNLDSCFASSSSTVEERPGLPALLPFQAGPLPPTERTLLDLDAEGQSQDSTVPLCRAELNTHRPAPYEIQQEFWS
Chain of UniProt Q05940 (whole entry, looked up): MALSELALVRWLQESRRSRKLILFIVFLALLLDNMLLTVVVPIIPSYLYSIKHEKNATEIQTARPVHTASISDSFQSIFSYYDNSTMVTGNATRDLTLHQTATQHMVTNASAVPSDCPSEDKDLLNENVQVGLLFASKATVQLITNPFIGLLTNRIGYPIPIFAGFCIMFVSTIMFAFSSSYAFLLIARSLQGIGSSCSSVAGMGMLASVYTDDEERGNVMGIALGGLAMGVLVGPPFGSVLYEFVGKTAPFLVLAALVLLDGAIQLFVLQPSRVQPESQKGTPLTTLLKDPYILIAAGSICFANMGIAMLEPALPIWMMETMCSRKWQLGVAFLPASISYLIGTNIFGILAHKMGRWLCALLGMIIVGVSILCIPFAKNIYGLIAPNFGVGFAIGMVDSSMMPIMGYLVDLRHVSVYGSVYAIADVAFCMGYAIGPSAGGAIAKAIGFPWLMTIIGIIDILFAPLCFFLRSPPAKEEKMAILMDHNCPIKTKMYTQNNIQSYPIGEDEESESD

SMILES = Cc1ccc(NC2=CC(=O)c3sc(C)nc3C2=O)cc1; target or system = MAP3K9; assay = enzyme activity, inhibitor; conditions = 0.5 µM; how to read = reference: control; endpoint = remaining activity; value = 86.7%
SMILES = CCn1cc(C(=O)O)c(=O)c2cc(F)c(N3CCNCC3)cc21; target or system = Sarcocystis neurona; assay = parasite activity; conditions = 10 µM, 96 h; endpoint = activity class; value = inactive
SMILES = Nc1nccc(-c2c(-c3ccc(F)cc3)ncn2C2CCNCC2)n1; target or system = MAP3K9; assay = enzyme activity, inhibitor; conditions = 0.5 µM; how to read = reference: control; endpoint = remaining activity; value = 94.5%
SMILES = COc1cc(C(=O)N2CCC(N3CCN(C)CC3)CC2)ccc1Nc1ncc2c(n1)N(C)c1ccccc1C(=O)N2C; test system = mouse, plasma; conditions = intravenous, 1 mg/kg; endpoint = half-life; value = 4.47 h
SMILES = CC(=O)CC(c1ccccc1)c1c(O)c2ccccc2oc1=O (centres unmarked); target or system = Sarcocystis neurona; assay = parasite activity; conditions = 10 µM, 96 h; endpoint = activity class; value = inactive
SMILES = CC(C)n1cnc(-c2ccc(F)cc2)c1-c1ncc(C(=O)Nc2ccc(N3CCN(C)CC3)cc2)[nH]1; test system = human, idiopathic pulmonary fibrosis; conditions = 30 mg once daily, trial, treatment-emergent; endpoint = patients with drug-induced liver injury; value = 0%
SMILES = CC(C)(C)n1nc(Cc2cccc3ccccc23)c2c(N)ncnc21; target or system = MAP3K9; assay = enzyme activity, inhibitor; conditions = 0.5 µM; how to read = reference: control; endpoint = remaining activity; value = 103%
SMILES = COc1cc2c(cc1OC)C1CC(=O)C(CC(C)C)CN1CC2 (centres unmarked); target or system = Synaptic vesicular amine transporter (SLC18A2, Homo sapiens, UniProt Q05940); endpoint = Ki; value = 11.9 ± 0.77 nM
